Measurements from different studies.
Every numbered part comes from another study and shows a few of its results, in no order.
UniProt O75385, sequence (whole entry, looked up): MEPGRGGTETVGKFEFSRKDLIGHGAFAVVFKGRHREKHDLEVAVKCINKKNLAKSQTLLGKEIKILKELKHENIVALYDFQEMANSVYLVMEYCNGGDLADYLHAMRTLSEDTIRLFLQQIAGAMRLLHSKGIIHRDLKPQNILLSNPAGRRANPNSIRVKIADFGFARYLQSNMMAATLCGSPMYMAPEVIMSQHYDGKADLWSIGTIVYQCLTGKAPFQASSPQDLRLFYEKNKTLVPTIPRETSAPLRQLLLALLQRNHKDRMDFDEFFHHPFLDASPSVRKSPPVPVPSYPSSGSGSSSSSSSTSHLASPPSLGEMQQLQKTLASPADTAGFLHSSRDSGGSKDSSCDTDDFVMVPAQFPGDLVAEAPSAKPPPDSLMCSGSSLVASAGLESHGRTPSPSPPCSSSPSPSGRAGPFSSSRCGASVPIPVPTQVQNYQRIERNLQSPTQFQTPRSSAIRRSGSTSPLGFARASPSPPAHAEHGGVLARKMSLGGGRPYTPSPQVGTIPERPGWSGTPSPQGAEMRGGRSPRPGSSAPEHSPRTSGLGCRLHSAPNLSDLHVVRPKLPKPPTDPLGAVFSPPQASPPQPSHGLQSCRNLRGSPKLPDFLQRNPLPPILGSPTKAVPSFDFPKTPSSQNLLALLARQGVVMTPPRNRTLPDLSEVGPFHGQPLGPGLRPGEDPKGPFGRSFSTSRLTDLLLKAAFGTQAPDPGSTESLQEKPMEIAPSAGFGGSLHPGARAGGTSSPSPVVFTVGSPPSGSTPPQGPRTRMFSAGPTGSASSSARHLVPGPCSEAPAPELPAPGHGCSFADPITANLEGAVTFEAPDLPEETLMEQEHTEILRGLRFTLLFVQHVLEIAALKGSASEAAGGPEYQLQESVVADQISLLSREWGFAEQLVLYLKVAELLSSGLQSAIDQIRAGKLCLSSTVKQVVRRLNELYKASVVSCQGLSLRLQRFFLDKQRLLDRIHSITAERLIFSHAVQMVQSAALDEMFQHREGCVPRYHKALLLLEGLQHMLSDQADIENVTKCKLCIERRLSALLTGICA
UniProt Q99986, sequence (whole entry, looked up): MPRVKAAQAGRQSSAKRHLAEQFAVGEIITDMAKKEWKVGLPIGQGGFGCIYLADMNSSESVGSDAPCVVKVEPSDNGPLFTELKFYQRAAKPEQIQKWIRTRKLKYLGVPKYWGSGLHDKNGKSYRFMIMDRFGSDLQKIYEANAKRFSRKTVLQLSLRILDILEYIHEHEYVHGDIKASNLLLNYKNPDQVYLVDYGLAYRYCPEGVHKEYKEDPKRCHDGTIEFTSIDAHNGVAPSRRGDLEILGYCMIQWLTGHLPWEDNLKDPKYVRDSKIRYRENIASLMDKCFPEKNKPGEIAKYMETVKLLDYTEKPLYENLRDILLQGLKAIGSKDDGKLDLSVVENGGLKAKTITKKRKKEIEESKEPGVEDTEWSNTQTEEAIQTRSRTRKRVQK
UniProt O43353, sequence (whole entry, looked up): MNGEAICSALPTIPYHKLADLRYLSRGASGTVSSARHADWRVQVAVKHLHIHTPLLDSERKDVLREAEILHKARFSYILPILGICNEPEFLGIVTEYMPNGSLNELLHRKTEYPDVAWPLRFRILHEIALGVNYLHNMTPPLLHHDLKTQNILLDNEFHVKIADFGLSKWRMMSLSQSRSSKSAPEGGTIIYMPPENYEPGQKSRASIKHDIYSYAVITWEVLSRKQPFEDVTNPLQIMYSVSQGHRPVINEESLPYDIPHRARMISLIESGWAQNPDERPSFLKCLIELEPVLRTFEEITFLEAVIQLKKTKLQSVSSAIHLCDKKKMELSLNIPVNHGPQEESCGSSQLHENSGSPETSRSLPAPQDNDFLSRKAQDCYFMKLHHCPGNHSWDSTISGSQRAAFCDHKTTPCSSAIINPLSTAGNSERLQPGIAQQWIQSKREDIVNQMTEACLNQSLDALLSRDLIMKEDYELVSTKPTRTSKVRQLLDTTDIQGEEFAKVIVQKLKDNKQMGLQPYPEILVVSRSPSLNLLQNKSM

Sample 1
SMILES: COC[C@H]1OC(=O)c2coc3c2[C@@]1(C)C1=C(C3=O)[C@@H]2CCC(=O)[C@@]2(C)C[C@H]1OC(C)=O
Observed: enzyme activity
Action: inhibitor
Concentration: 0.5 µM
Relative to: control
target | remaining activity [%]
Tyrosine-protein kinase HCK (HCK, Homo sapiens, UniProt P08631) | 91.3
Serine/threonine-protein kinase VRK1 (VRK1, Homo sapiens, UniProt Q99986) | 101
Activin receptor type-1 (ACVR1, Homo sapiens, UniProt Q04771) | 93
Activated CDC42 kinase 1 (TNK2, Homo sapiens, UniProt Q07912) | 102
Platelet-derived growth factor receptor beta (PDGFRB, Homo sapiens, UniProt P09619) | 98.1
Receptor-interacting serine/threonine-protein kinase 2 (RIPK2, Homo sapiens, UniProt O43353) | 99.7
Dual serine/threonine and tyrosine protein kinase (DSTYK, Homo sapiens, UniProt Q6XUX3) | 95.4
Dual specificity tyrosine-phosphorylation-regulated kinase 2 (DYRK2, Homo sapiens, UniProt Q92630) | 111
Serine/threonine-protein kinase PLK1 (PLK1, Homo sapiens, UniProt P53350) | 2.36
Mitogen-activated protein kinase kinase kinase 9 (MAP3K9, Homo sapiens, UniProt P80192) | 91.6
Mitogen-activated protein kinase kinase kinase kinase 5 (MAP4K5, Homo sapiens, UniProt Q9Y4K4) | 95.6
Serine/threonine-protein kinase ULK1 (ULK1, Homo sapiens, UniProt O75385) | 87.5
Fibroblast growth factor receptor 2 (FGFR2, Homo sapiens, UniProt P21802) | 95.4
Serine/threonine-protein kinase Sgk3 (SGK3, Homo sapiens, UniProt Q96BR1) | 102
Serine/threonine-protein kinase TAO1 (TAOK1, Homo sapiens, UniProt Q7L7X3) | 113
Insulin receptor-related protein (INSRR, Homo sapiens, UniProt P14616) | 100
BDNF/NT-3 growth factors receptor (NTRK2, Homo sapiens, UniProt Q16620) | 99.9
Phosphorylase b kinase gamma catalytic chain, liver/testis isoform (PHKG2, Homo sapiens, UniProt P15735) | 88.2
Serine/threonine-protein kinase D3 (PRKD3, Homo sapiens, UniProt O94806) | 94.2
RAF proto-oncogene serine/threonine-protein kinase (RAF1, Homo sapiens, UniProt P04049) | 96

Sample 2
Target: DNA polymerase theta, ATPase domain (POLQ, Homo sapiens, UniProt O75417)
UniProt O75417, sequence (whole entry, unmodified, looked up): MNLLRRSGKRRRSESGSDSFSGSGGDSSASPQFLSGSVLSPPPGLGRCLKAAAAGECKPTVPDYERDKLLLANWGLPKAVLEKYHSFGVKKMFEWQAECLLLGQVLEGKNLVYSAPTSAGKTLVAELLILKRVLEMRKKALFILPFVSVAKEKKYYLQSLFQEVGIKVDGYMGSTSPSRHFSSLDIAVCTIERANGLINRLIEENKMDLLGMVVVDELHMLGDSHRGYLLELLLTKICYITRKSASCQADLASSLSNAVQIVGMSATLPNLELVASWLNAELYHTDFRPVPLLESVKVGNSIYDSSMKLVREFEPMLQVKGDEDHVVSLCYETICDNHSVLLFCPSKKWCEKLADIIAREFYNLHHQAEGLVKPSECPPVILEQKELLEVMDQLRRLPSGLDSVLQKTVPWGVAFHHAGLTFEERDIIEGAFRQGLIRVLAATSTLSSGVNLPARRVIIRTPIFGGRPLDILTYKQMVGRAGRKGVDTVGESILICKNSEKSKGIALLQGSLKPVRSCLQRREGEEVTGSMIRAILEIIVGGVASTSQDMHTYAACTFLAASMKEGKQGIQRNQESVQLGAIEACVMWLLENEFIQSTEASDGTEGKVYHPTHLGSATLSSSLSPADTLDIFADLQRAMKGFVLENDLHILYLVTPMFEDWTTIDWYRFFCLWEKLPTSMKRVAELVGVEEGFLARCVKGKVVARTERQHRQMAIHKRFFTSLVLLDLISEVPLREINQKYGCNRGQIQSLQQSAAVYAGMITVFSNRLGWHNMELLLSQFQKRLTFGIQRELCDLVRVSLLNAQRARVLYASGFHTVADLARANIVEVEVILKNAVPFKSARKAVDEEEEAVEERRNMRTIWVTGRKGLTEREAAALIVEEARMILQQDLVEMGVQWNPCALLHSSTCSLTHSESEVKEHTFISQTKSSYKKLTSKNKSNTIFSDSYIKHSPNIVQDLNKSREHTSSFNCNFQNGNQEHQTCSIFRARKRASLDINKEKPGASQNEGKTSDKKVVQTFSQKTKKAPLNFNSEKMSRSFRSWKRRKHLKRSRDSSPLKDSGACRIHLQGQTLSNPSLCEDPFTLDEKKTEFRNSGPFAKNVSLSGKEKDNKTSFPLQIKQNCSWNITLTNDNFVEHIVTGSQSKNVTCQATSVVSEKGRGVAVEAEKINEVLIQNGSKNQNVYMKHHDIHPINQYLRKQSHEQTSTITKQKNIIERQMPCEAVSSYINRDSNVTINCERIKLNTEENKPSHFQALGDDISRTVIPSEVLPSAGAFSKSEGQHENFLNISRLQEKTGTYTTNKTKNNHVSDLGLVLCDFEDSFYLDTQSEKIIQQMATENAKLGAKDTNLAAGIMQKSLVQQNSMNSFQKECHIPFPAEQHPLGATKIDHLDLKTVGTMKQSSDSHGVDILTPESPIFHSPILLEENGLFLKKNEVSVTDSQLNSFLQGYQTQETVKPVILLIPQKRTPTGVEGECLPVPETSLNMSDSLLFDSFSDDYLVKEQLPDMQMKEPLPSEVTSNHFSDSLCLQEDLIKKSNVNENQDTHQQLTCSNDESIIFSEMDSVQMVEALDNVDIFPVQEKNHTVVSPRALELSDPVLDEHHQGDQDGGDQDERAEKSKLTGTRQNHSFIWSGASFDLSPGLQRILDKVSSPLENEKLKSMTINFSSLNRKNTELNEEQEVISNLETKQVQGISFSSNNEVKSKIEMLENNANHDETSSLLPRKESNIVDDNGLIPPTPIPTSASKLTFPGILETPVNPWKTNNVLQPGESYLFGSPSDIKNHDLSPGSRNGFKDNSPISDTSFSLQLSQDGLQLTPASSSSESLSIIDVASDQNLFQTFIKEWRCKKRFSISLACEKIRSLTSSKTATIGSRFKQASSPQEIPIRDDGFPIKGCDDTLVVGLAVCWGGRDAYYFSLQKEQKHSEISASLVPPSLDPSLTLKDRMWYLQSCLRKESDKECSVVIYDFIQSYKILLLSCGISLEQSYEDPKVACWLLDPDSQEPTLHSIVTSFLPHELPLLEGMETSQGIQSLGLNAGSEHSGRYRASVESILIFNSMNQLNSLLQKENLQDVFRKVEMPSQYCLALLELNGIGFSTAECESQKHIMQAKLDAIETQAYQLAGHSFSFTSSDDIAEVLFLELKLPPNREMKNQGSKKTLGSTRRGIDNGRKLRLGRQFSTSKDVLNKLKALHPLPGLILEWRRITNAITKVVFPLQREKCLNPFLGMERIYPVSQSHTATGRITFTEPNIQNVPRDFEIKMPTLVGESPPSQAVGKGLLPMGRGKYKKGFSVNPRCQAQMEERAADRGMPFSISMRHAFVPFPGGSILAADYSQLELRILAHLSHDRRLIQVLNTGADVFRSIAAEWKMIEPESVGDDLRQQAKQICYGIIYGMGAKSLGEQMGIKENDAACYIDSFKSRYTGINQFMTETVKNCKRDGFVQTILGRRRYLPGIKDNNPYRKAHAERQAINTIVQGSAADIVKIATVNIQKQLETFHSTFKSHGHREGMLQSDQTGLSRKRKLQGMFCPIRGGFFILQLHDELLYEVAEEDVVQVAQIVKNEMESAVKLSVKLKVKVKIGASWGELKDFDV
Observed: enzyme activity
Action: inhibitor
Concentration: 77 µM
Relative to: untreated
Structure (SMILES) | remaining activity
CC(C)=CCOc1c2occc2cc2ccc(=O)oc12 | 112%
CC(O)(CS(=O)(=O)c1ccc(F)cc1)C(=O)Nc1ccc(C#N)c(C(F)(F)F)c1 (centres unmarked) | 102%
C[C@@H]1[C@H](O)[C@@H](C)/C=C/C=C/CC/C=C/C=C/C=C/C=C/C(O[C@H]2O[C@H](C)[C@@H](O)[C@H](N)[C@@H]2O)CC2O[C@](O)(CC(O)C(O)CCC(O)CC(O)CC(O)CC(=O)O[C@H]1C)CC(O)C2C(=O)O (some centres unmarked) | 99.9%
C[C@H]1CNCCc2ccc(Cl)cc21 | 104%
COC1=CC(=O)O[C@@H](/C=C/c2ccccc2)C1 | 100%
COc1cc2c(c(OC)c1OC)-c1ccc(O)c(=O)cc1[C@@H](N)CC2 | 106%
CCCCCC[C@H]1C(=O)O[C@H](C)[C@H](NC(=O)c2cccc(NC=O)c2O)C(=O)O[C@@H](C)[C@@H]1OC(=O)CC(C)C | 98.2%
C#CCN(C)[C@H](C)Cc1ccccc1 | 90.5%
O=C[C@H](Cl)[C@@H](O)[C@H](O)[C@H](O)CO | 113%
CC1=CC(=O)C2=C(C)C[C@H](O)[C@@H]3[C@H](OC(=O)[C@H]3C)[C@H]12 | 99.2%

Sample 3
Target: Calcium/calmodulin-dependent protein kinase type II subunit alpha (CAMK2A, Homo sapiens, UniProt Q9UQM7)
UniProt Q9UQM7, sequence (whole entry, looked up): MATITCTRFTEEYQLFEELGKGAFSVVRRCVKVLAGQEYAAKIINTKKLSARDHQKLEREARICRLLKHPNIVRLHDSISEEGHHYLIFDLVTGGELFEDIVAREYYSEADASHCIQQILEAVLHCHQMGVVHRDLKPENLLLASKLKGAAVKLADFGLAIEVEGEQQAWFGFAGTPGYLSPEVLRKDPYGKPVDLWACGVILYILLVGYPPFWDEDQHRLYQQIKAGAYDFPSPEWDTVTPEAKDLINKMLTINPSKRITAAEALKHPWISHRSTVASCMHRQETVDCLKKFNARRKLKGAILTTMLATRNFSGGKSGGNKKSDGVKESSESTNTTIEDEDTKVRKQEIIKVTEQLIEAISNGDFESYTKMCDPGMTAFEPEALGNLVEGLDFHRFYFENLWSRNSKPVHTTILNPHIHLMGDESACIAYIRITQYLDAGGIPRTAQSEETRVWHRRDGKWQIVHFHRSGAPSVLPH
Observed: enzyme activity
Action: inhibitor
Concentration: 10 µM
Structure (SMILES) | inhibition
C=C1[C@H](OC(C)=O)[C@@H](OC(=O)c2ccccc2)[C@@H](OC(C)=O)C(C)(C)[C@H]2O[C@](O)([C@H](C)C2=O)[C@@]2(OC(C)=O)C[C@H](C)[C@H](OC(C)=O)[C@@H]2[C@H]1OC(C)=O | 14%
C#C[C@]1(O)C=C[C@H]2[C@@H]3CCC4=CC(=O)CC[C@@H]4[C@H]3CC[C@@]21CC | -10%
C/C=C(\C)C(=O)O[C@@H]1C[C@H](O)[C@]23CO[C@H](C(=O)OC)[C@H]2[C@](C)([C@]24O[C@@]2(C)[C@H]2C[C@@H]4O[C@@H]4OC=C[C@@]42O)[C@H](O)[C@@H]2OC[C@@]1(C(=O)OC)[C@H]23 | -5%
CCC(=O)c1cc2c(cc1O)OCO2 | -6%
CCO[C@H]1O[C@@H]2O[C@@]3(C)CC[C@H]4[C@H](C)CC[C@@H]([C@H]1C)[C@@]24OO3 | 1%
CC1(C)OC1COc1c2occc2cc2ccc(=O)oc12 (centres unmarked) | -1%
CC(CCc1ccccc1)NC(C)C(O)c1ccc(O)cc1 (centres unmarked) | -5%
C[C@@H]1CC[C@@]2(NC1)O[C@H]1C[C@H]3[C@@H]4CC=C5C[C@@H](O)CC[C@]5(C)[C@H]4CC[C@]3(C)[C@H]1[C@@H]2C | -29%
C=C1[C@@H](O)[C@]2(O)OC[C@]34[C@H]2[C@@]2(C)[C@H](O)C(=O)C=C(C)[C@@H]2C[C@H]3OC(=O)[C@H](O)[C@@]14O | -20%

Other studies, line by line
Structure (SMILES) | target | test | conditions | quantity | result
Cc1nc(Cc2cccc(C(F)(F)F)c2)sc1-c1ccc(C(N)=O)nc1 | 5-hydroxytryptamine receptor 2A (HTR2A, Homo sapiens, UniProt P28223) | binding, radioligand binding | 10 µM | inhibition | 20.4%
O=C(NCCCC1CCCCC1)c1ccc(CNC(=O)c2cnn(-c3ccccc3)c2C(F)(F)F)cc1 | Cyclin-dependent kinase 2 homolog (CRK2, Plasmodium falciparum, UniProt P61075) | cell-free assay, competition with immobilised ligand | 0.1 µM | remaining binding | 100%
